Results collected from several papers.

| Compound | test | test system | conditions | plasma concentration |
| --- | --- | --- | --- | --- |
| COc1cc2c(cc1OC)CN(CCc1ccc(NC(=O)c3cc(OC)c(OC)cc3NC(=O)c3cnc4ccccc4c3)cc1)CC2 | LC-MS/MS | human, plasma | intravenous infusion, 2 to 8 mg/kg | 281 to 1310 ng/mL |
| CC(O)CO (centres unmarked) | GC-FID | human, plasma | dose not given, 30 min, after liquid APAP preparation | 62000 ng/mL |
| Fc1ccc([C@@H]2CCNC[C@H]2COc2ccc3c(c2)OCO3)cc1 | – | healthy human subjects | oral, 20 mg once daily, 6 h post-dose, day 14 | 44.8 ng/mL |
| CN[C@H](CC(C)C)C(=O)N[C@H]1C(=O)N[C@@H](CC(N)=O)C(=O)N[C@H]2C(=O)N[C@H]3C(=O)N[C@H](C(=O)N[C@H](C(=O)O)c4cc(O)cc(O)c4-c4cc3ccc4O)[C@H](O[C@H]3C[C@](C)(N)[C@@H](O)[C@H](C)O3)c3ccc(c(Cl)c3)Oc3cc2cc(c3O[C@@H]2O[C@H](CO)[C@@H](O)[C@H](O)[C@H]2O[C@H]2C[C@](C)(NCc3ccc(-c4ccc(Cl)cc4)cc3)[C@@H](O)[C@H](C)O2)Oc2ccc(cc2Cl)[C@H]1O | – | human, plasma | intravenous, 1200 mg, 7 days after last dose | 4240 ng/mL |
| Cc1ccccc1C(=O)Nc1ccc(C(=O)N2CCCC(O)c3cc(Cl)ccc32)c(C)c1 (centres unmarked) | – | healthy humans, plasma | oral, 90 mg, 2 h postdose, day 4, together with: rosuvastatin | 422 ng/mL |
| CCCCCCCCCCCCCCC[C@H](O)[C@@H](N)CO | – | human patients | intravenous, 750 to 930 mg/m2, up to 4 h | ≥ 5000 nM |
| CC(C)(C)NC(=O)N[C@H](C(=O)N1C[C@H]2[C@@H]([C@H]1C(=O)NC(CC1CCC1)C(=O)C(N)=O)C2(C)C)C(C)(C)C (some centres unmarked) | – | human | oral, 800 mg three times daily, 8 h, day 10, geometric mean, together with: maraviroc 150 mg twice daily | 80.7 ng/mL |
| C[C@]12C=CC(=O)C=C1CC[C@@H]1[C@@H]2[C@@H](O)C[C@@]2(C)[C@H]1CC[C@]2(O)C(=O)CO | – | human castration-resistant prostate cancer, plasma | 10 mg daily, 48 days, sample A patients | > 30 nM |
| CNc1nc(Nc2ccc(-n3cnc(C)n3)c(OC)c2)nc2c1CC[C@H]2c1ccc(F)cc1 | – | human | oral, 100 mg once daily, 24 h, day 14, multiple ascending dose, geometric mean | 308 ng/mL |
| CN1CCc2nc(C(=O)N[C@@H]3C[C@@H](C(=O)N(C)C)CC[C@@H]3NC(=O)C(=O)Nc3ccc(Cl)cn3)sc2C1 | – | human, plasma | 60 mg, 24 h, fed, together with: dronedarone | 5.9 ng/mL |
| C=C[C@@H]1C[C@]1(NC(=O)[C@@H]1C[C@@H]2CN1C(=O)[C@H](C(C)(C)C)NC(=O)O[C@@H]1C[C@H]1CCCCCc1nc3ccc(OC)cc3nc1O2)C(=O)NS(=O)(=O)C1CC1 | – | healthy adult humans, plasma | oral, 100 mg, 24 h, fixed-dose combination with elbasvir 50 mg, fasted | 6 nM |

Some of these lines once more:
| Compound | test | test system | conditions | plasma concentration |
| --- | --- | --- | --- | --- |
| CC(C)(C)NC(=O)N[C@H](C(=O)N1C[C@H]2[C@@H]([C@H]1C(=O)NC(CC1CCC1)C(=O)C(N)=O)C2(C)C)C(C)(C)C (some centres unmarked) | – | human | oral, 800 mg three times daily, 8 h, day 10, geometric mean, together with: maraviroc 150 mg twice daily | 80.7 ng/mL |
